Assay results from different studies.
Parts stem from different laboratories: compare values within a part only. Several values in a cell are separate wells, animals, samples, runs or records.
Sequence of UniProt P28223 (whole entry, looked up): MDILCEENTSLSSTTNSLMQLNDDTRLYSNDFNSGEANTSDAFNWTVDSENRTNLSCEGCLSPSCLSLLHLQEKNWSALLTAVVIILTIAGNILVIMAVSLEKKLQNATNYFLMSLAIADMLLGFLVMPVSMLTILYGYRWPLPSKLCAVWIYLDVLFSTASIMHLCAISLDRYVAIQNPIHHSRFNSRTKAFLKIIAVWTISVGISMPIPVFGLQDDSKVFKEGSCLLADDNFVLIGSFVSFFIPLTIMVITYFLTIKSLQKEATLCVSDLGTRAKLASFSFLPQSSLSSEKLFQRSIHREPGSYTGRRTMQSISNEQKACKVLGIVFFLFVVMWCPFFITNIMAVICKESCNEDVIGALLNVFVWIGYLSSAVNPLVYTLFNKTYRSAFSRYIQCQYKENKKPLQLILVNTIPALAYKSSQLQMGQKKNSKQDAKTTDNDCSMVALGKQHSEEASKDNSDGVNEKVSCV

Series 1
Target: chymotrypsin
Observed: enzyme activity
Mode: inhibitor
Tested at: 10 µM
Setting: with DTT
Endpoint: inhibition
CCN(CC)C(=S)S: 6.5%
O=C(c1ccc(Cl)cc1)c1cc([N+](=O)[O-])ccc1N1CCOCC1: 7.3%
COC(=O)C1=C(C)NC(C)=C(C(=O)OC)C1c1ccccc1[N+](=O)[O-]: 7.7%
Cc1cc(-c2ccc(/N=N/c3ccc4c(S(=O)(=O)O)cc(S(=O)(=O)O)c(N)c4c3O)c(C)c2)ccc1/N=N/c1ccc2c(S(=O)(=O)O)cc(S(=O)(=O)O)c(N)c2c1O: 7.5% and 8.9%
O=C(c1cccs1)c1no[n+]([O-])c1C(=O)c1cccs1: 8.7%
Oc1cc2c(cc1O)C(c1ccccc1)CNCC2 (centres unmarked): 9%

Series 2
Cell line: HaCaT
Tested at: 100 µM
Time: 36 h
Endpoint: viability
Nc1nc(N)nc(NC2CC2)n1: 61%
O=C(O)c1nn(Cc2ccc(Cl)cc2Cl)c2ccccc12: 97.2%
CC(C)N(CCNC(=O)CN1CCCC1=O)C(C)C: 81.8%
C/C=C(\C)C(=O)N[C@@H](c1ccccc1)[C@@H](O)C(=O)O[C@H]1C[C@@]2(O)[C@@H](OC(=O)c3ccccc3)[C@@H]3[C@]4(OC(C)=O)CO[C@@H]4C[C@H](O)[C@@]3(C)C(=O)[C@H](OC(C)=O)C(=C1C)C2(C)C: 84.2%
C[N+]12CCC(CC1)C(OC(=O)C(O)(c1ccccc1)c1ccccc1)C2 (centres unmarked): 87.7%
O=C(CCCN1CCC2(CC1)C(=O)NCN2c1ccccc1)c1ccc(F)cc1: 29.4%

Other studies, line by line
CN(C(=O)c1ccn2ncc(-c3ccc(C(N)=O)cc3)c2c1)c1ccc(C#N)cn1  fold IC50 shift (C. parvum PI4K Y705A/Y907A; enzyme activity, inhibitor, ADP-Glo; baseline: mutant over wild type): 164 and 258
CCOCCn1cc(C(=O)Nc2ccc(-n3nc(-c4cccnc4)cc3C(F)(F)F)cn2)ccc1=O  inhibition (HTR2A (Homo sapiens, UniProt P28223); cell-free assay; 10 µM): -4.26%

Some of these lines once more (other studies, line by line):
CN(C(=O)c1ccn2ncc(-c3ccc(C(N)=O)cc3)c2c1)c1ccc(C#N)cn1  fold IC50 shift (C. parvum PI4K Y705A/Y907A; enzyme activity, inhibitor, ADP-Glo; baseline: mutant over wild type): 164 and 258
